Measurements of several laboratories.
Parts stem from different laboratories: compare values within a part only. Changes are numbered by the printed parent chain.

Block 1 — target: CCND3, cyclin fold, Cln2 fusion (human); method: yeast growth competition, sequencing; medium: yeast; setting: weak parent motif; baseline: not given; reading: higher = stronger binding
Starting sequence: FOXM1 docking peptide (human); PHLARPIKVESPP; partner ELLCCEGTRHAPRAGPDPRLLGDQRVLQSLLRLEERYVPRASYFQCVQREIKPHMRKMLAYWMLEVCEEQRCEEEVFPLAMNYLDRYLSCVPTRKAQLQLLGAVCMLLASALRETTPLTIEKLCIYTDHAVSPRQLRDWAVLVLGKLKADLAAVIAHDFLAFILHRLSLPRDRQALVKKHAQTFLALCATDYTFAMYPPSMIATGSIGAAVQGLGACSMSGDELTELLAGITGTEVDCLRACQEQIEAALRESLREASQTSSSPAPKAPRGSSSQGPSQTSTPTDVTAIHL
| Change | normalised enrichment score |
| --- | --- |
| P6A | -0.255 |
| S11A | -0.216 |
| L3A | -0.0117 |
| R5A | -0.215 |
| H2A | 0.0976 |
| K8A | -0.0538 |

Block 2 — method: RNA Bind-n-Seq; molecule type: RNA; medium: in vitro; concentration: 365 nM; baseline: no-protein control; reading: higher = stronger binding
Target: RNA binding protein fox-1 homolog 2, RRM domain, GST-SBP tag (RBFOX2, Homo sapiens, UniProt O43251-10, residues 100-194)
Setting: natural RNA segment, single round, ends assumed
Constant ends, left off below: GGGAGUUCUACAGUCCGACGAUC … UGGAAUUCUCGGGUGCCAA
Construct (chain): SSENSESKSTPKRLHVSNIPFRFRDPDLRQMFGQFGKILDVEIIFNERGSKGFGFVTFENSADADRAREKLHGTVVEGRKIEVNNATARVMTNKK
| Sequence | RBNS enrichment (R) |
| --- | --- |
| CCAUGAUUUUCCUUCAUGAUGUACCAUGUUUAACUUUCAUGUAUUAUUCUGCAAACUUGGUAGGCUGUUGGAUGUUAUAUUGCCCAUGUGCUUUACAGUGGGCAAUGUGA | 0.482 |
| GGGAGCACCUUUUAUCCCAAAGUGCUUUAUAAAUUGAGUGGACUGAUAUAUAUCACACCCAGGUAUCACUGUGCUGUCCUUUGCUGUCAGAUUUAGAAAUGUUUUUAAGA | 0.793 |
| AGGCCCCCUGCAGGAGGUCCGCUGCAGAUGGCACUGCCCUUCCUUCAGGUCAGGUGGCCCACCACCCUCUGGAAGCCAGGUGCCCACCCCACCUCCAGCUCUGCUGGCAA | 0.241 |
| UGUAUGCUUAUUUAUUUGGGGGGAAAACUAUACAUUAAAGGACCUUUGUCCUAAGCUCUCUCCCAGGCCACGUUGUUAUUCACUGGGCAUGGAGAGAUGGUCAUUUCGUG | 0.503 |
| AUCUAUAGGGUCGAGCCUAGGGGAGCUUGAGGGAGGGCUGGGGCCUCCUUGUCCUGGAUUUCCAGCUCUCCCCAUGCCCCCUCCCUGAGCACCACCGGCACCGCCUCCCA | 0.365 |
| UGAACAUUUUCUUUGGCUCGUGCCAUGUUAUGAUCAUAUACCUUUUAAAUAAGGGGAAAUAGUAUCUUUAAAGUUAAUGUCUAGCCAAGAGUUUAGUAAACGAAGAAUUA | 0.316 |
| GCCAAGCUUCAUCUUACUGAAAAAGACUCAGACCCUCAGCAAAGAACAAUGGAGAGAAAGUAGGUGAGUACUUUGAGUGUUGGGCUUUGGGCCAAAAAUGCAGACUCAGG | 0.64 |
| GGGGAUAUGGUGGCUCUGUGAUCUGUUUGUCCAUUUGUGUCCAGUGUUGACCUGCGUUACUGGAACUUGGAGCUACCCUGUUUGGUUACCAGUGGACUGUUAGAAAGUAU | 2.67 |
| CCAGGGUCAGAGCGCACAGCUUCAGGCAUCUCUGUCCACCAGCUAGCAGUGGAGAUGAAAUCAAGACCUUGCAAAAUGGAUACUAGGAGAUGAACAACAAUUCAACGUGC | 0.404 |
| AGCCUGAAACGCACCGCUCCUGCGUGCGCCCCCACCUGGUCCCCGGAUGCCCCCACCACCUGGACAGAGGCCACACUGACUGCCCACCCAGCUGUGGCGGGAGGUGCAGA | 0.191 |
| CCUAUAGCCUCUGCCACCUUGUAUAAACCCUGAUGUAUGCUAAGUGUUCUGGAUAUGAAUGUAUGUACACUGAUGCUGCCCCCCUCUGUACAGCGGCUUGGCCUCUCACG | 2.51 |
| AUUGUGUUCACUACAACAGGAUAGGGACAUCAGACAGCCCCAGAAACCCCUUCCAGAUCUGAUAUGGGACUAUUAAUUUUUAUGCUGUUAAUUGGUAUUCAUUCACAAUG | 0.314 |

Block 3 — method: protein-binding microarray; molecule type: double-stranded DNA, one strand shown; medium: in vitro; concentration: 2540 nM top; setting: 60-bp whole probe; added: salmon DNA 0.4 mg/ml; baseline: random background probes; reading: higher = stronger binding; constant ends, left off below: GCCTAGCAC … GTCTTGATTCGCTTGACGCTGCTG
Target: Interferon regulatory factor 3, full length, phosphomimetic (IRF3, Homo sapiens, UniProt Q14653, residues 1-427, S386D/S396D/S398D/S402D/T404D/S405D)
Construct (chain): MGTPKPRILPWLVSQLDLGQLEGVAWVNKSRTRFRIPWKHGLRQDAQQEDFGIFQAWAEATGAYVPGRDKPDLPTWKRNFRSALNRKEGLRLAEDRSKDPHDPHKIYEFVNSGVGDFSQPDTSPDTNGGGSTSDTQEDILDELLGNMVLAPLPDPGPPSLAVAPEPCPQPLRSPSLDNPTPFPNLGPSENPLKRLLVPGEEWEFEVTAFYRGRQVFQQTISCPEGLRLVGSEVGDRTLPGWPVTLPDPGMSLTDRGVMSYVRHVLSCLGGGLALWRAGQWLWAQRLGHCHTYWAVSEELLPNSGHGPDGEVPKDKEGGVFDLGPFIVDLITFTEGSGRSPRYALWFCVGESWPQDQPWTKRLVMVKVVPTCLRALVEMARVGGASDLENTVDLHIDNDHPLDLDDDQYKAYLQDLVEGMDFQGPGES
| Sequence | fitted relative affinity [z-score] |
| --- | --- |
| TTAGGTTTCCTTTTCCTGTAGTGCTAG | 11.1 |
| CACGAACTGGGGTTTCGAGACGTGCTA | 0.291 |
| TTAGATTTCAGTATCGATAAGTGCTAG | 2.38 |
| GACGGACTGCTTCTCCTGAAGTGCTAG | -0.278 |
| ATAGGTATCGGTATCGGTTAGTGCTAG | 5.52 |
| GACTGTTTCCTTTCCCTGACGTGCTAG | 9.17 |
| TTAGATTTCAGTAGCGATTAGTGCTAG | 0.387 |
| GACGATATCAGTTTCGAGTCGTGCTAG | 4.13 |
| GACGGTCTCGGTATCGGGATGTGCTAG | 1.93 |
| GATGGTATTTGCCTGTGGTCGTGCTAG | -0.627 |
| AAAAAAATCATTTTCTCTGTGTGCTAG | 1.51 |
| TTTGATCTCAGTTTCGATTAGTGCTAG | 3.72 |
| AGCTGTTTCTGTGTCACAGAGTGCTAG | 3.2 |
| TTAGATTTCAGTTCCGAGTAGTGCTAG | 2.97 |
| TTAGGACTGGGGTTTCGGTTTGTGCTA | 3.69 |
| GACGGGTTCGGTATCGGGACGTGCTAG | 2.36 |
| TCAAGAGTAGTTTTTCAAACTGTGCTA | 0.156 |
| GACGGTCTCCCACTGCTGACGTGCTAG | 0.786 |
| GACGGTATCCTTTTCCTGGCGTGCTAG | 7.7 |
| GACGGTCTCGGTTTCGGGCCGTGCTAG | 3.29 |
| GTCGAACTGAGACTGGAGACGTGCTAG | -0.0575 |
| GACAGTTTCGGTATCGGGACGTGCTAG | 8.68 |

Block 4 — method: aptamer microarray, sandwich; molecule type: DNA with 2'F-ANA; medium: in vitro; concentration: 200 nM; added: Cy3 exosite-II aptamer, 400 nM; reading: higher = stronger binding; sequence: GGTTGGTGTGGTTGG
Target: Prothrombin, mature alpha-thrombin (F2, Homo sapiens, UniProt P00734)
Setting: whole 15-mer aptamer, many near background
| Modification | mean fluorescence intensity [a.u.] |
| --- | --- |
| 2'F-ANA at 1 2 3 5 7 14 15 | 43.6 |
| 2'F-ANA at 7 8 9 12 13 14 | 288 |
| 2'F-ANA at 4 5 8 11 13 15 | 51.4 |
| 2'F-ANA at 1 4 5 6 9 10 13 14 15 | 46.2 |
| 2'F-ANA at 2 3 4 7 8 9 13 | 490 |
| 2'F-ANA at 1 4 7 8 9 10 13 | 49.3 |
| 2'F-ANA at 1 4 6 7 9 14 15 | 51.9 |
| 2'F-ANA at 2 3 12 13 14 15 | 479 |
| 2'F-ANA at 2 3 4 9 10 11 13 14 15 | 231 |
| 2'F-ANA at 1 3 4 5 6 7 11 14 | 49.2 |
| 2'F-ANA at 1 2 7 14 15 | 70.3 |
| 2'F-ANA at 1 2 3 4 6 8 10 12 13 14 15 | 109 |
| 2'F-ANA at 3 4 8 15 | 792 |
| 2'F-ANA at 1 2 3 5 6 7 8 10 11 | 50.8 |
| 2'F-ANA at 1 2 3 4 6 9 10 11 12 15 | 109 |
| 2'F-ANA at 1 3 4 5 6 8 13 14 15 | 61.7 |
| 2'F-ANA at 2 4 8 9 10 11 12 13 14 15 | 59.3 |
| 2'F-ANA at 3 4 5 6 10 13 15 | 44.4 |
| 2'F-ANA at 6 7 8 10 11 14 15 | 99.8 |
| 2'F-ANA at 2 3 4 5 6 8 9 10 11 14 | 133 |
| 2'F-ANA at 2 3 5 6 7 8 9 11 14 | 52.7 |
| 2'F-ANA at 2 3 5 6 7 12 15 | 198 |
| 2'F-ANA at 3 6 7 8 9 11 12 15 | 1080 |
| 2'F-ANA at 3 4 7 8 9 | 834 |
| 2'F-ANA at 3 6 7 8 10 11 12 13 14 15 | 399 |

Single results of other studies
| Molecule | target | test | system | setting | scale | endpoint | result |
| --- | --- | --- | --- | --- | --- | --- | --- |
| PhoQ, residues 284 288 289 292 302 303 TLASMF | PhoP, residues 12 14 15 18 19 SGWQI (Escherichia coli, UniProt P23836) | Sort-seq, measured: YFP reporter | E. coli | PhoQ-PhoP variant library, added: 10 µM Mg2+ | baseline: high Mg2+ state, higher = stronger signaling | fold induction | 8.19 |

A few entries again (block 3):
| Sequence | fitted relative affinity [z-score] |
| --- | --- |
| GACTGTTTCCTTTCCCTGACGTGCTAG | 9.17 |
| TTAGGACTGGGGTTTCGGTTTGTGCTA | 3.69 |
| TTTGATCTCAGTTTCGATTAGTGCTAG | 3.72 |
| AGCTGTTTCTGTGTCACAGAGTGCTAG | 3.2 |
| GACGGACTGCTTCTCCTGAAGTGCTAG | -0.278 |
| TCAAGAGTAGTTTTTCAAACTGTGCTA | 0.156 |
| GTCGAACTGAGACTGGAGACGTGCTAG | -0.0575 |
| GACGGTCTCGGTATCGGGATGTGCTAG | 1.93 |
| AAAAAAATCATTTTCTCTGTGTGCTAG | 1.51 |
| GACGATATCAGTTTCGAGTCGTGCTAG | 4.13 |
| GACGGTATCCTTTTCCTGGCGTGCTAG | 7.7 |
